Measurements gathered from unrelated publications.
Each line is one published result; not all experiments were run side by side. ± gives the spread as reported.

`CC1(C)[C@@H](O[C@H]2O[C@H](C(=O)O)[C@@H](O)[C@H](O)[C@H]2O[C@@H]2O[C@H](C(=O)O)[C@@H](O)[C@H](O)[C@H]2O)CC[C@]2(C)[C@H]3C(=O)C=C4[C@@H]5C[C@@](C)(C(=O)O)CC[C@]5(C)CC[C@@]4(C)[C@]3(C)CC[C@@H]12` has an IC50 of 77700 nM (ACE2-SNAP-HEK293T; cell viability, CCK-8; 24 h).
`CC(C)C[C@H](NC(=O)[C@H](Cc1c[nH]c2ccccc12)NC(=O)[C@@H](NC(=O)[C@H](CC(C)C)NC(=O)[C@H](Cc1ccccc1)NC(=O)[C@@H](NC(=O)[C@H](CCCCN)NC(=O)[C@H](CCCNC(=N)N)NC(=O)[C@H](CCCCN)NC(=O)[C@H](CCCCN)NC(=O)[C@H](CCCCN)NC(=O)[C@@H]1CCCN1C(=S)Nc1ccc2c(c1)C(=O)OC21c2ccc(O)cc2Oc2cc(O)ccc21)C(C)C)[C@@H](C)O)C(=O)O` gave an IC50 of 19000 nM (NCI-H1975; CCK-8; liposome-delivered).
For `C=CC(=O)N[C@H]1C=C(C)c2c(-c3cnc4ccccc4c3)c3c(N)ncnc3n2C1`, the IC50 was 44.8 nM (NCI-H2073 ASV knock-in; cell proliferation, CellTiter-Glo; 72 h, geometric mean).
`COc1c(C)c2c(c(O)c1C/C=C(\C)CCC(=O)O)C(=O)OC2` has an IC50 of 41.7 nM (Ramos; cell proliferation; blood cancer).
`Cc1ccc(C(=O)c2cc(O)c(O)c([N+](=O)[O-])c2)cc1` has a maximum inhibition of 20.7% (human coronavirus OC43; virus-induced cell killing; MRC-5; screen).
For `CCCCC/C=C\C/C=C\C/C=C\C/C=C\CCCC(=O)NCCO`, the IC50 was 4300 ± 160 nM (ReNcell VM; mitochondrial membrane potential, TMRM; 24 h).
For `CCCCCCCCCCCCN(C)C(=O)CP(=O)(O)O`, the IC50 was 35 µg/mL (Vero CCL-81; cytotoxicity).
`COc1cc([C@@H]2c3cc4c(cc3[C@@H](O[C@@H]3O[C@@H]5CO[C@@H](C)O[C@H]5[C@H](O)[C@H]3O)[C@H]3COC(=O)[C@H]23)OCO4)cc(OC)c1O` gave a maximum inhibition of 0% (human coronavirus OC43; virus-induced cell killing; MRC-5; maximum over 10 doses).
`Cc1sc2c(c1C)C(c1ccc(Cl)cc1)=N[C@@H](CC(N)=O)c1nnc(C)n1-2` gave an IC50 of 141 nM (uveal melanoma cell lines; cell viability; average over cell lines).
`COc1cc(C(=O)c2cc3c(-c4ccccc4)c(O)ccc3o2)cc(OC)c1OC` gave an IC50 of > 50000 nM (FM3A; cell proliferation; 48 h).
The IC50 of `CC(C)[C@H](NC(=O)[C@H](Cc1c[nH]c2ccccc12)NC(=O)[C@H](Cc1c[nH]cn1)NC(=O)[C@H](CCCNC(=N)N)NC(=O)[C@H](CCCNC(=N)N)NC(=O)[C@H](Cc1c[nH]c2ccccc12)NC(=O)[C@H](Cc1c[nH]c2ccccc12)NC(=O)[C@H](Cc1c[nH]cn1)NC(=O)[C@H](Cc1c[nH]c2ccccc12)NC(=O)[C@H](CCCNC(=N)N)NC(=O)[C@@H](N)CCCCN)C(=O)N[C@H](C(=O)N[C@@H](Cc1c[nH]c2ccccc12)C(N)=O)C(C)C` is reported as 105000 nM (THP-1).
With `C=C(C)[C@H]1Cc2c(ccc3c2O[C@@H]2COc4cc(OC)c(OC)cc4[C@@H]2C3=O)O1` the IC50 was 330 ± 20 nM (ReNcell VM; intracellular glutathione level, monochlorobimane; 24 h).
`Cn1ncc(-c2nc(N[C@H]3CC[C@H](N)CC3)ncc2Cl)c1CC1CC1` gave an IC50 of 38 nM (primary NRAS/IDH2-mutated AML CD34+ blasts; blast expansion; HUVEC co-culture).
With `CC[C@@]1(O)C(=O)OCc2c1cc1n(c2=O)Cc2cc3ccccc3nc2-1` the IC50 was 676 nM (MP38 uveal melanoma BAP1-mutant; cell viability, CellTiter-Glo; 72 h).
